Experimental data gathered from unrelated publications.
Numbered parts are unrelated; each lists some results of a single study. Values joined by “and” are separate records of one study, mostly repeats; a detail may differ.
UniProt P36897, sequence (whole entry, looked up): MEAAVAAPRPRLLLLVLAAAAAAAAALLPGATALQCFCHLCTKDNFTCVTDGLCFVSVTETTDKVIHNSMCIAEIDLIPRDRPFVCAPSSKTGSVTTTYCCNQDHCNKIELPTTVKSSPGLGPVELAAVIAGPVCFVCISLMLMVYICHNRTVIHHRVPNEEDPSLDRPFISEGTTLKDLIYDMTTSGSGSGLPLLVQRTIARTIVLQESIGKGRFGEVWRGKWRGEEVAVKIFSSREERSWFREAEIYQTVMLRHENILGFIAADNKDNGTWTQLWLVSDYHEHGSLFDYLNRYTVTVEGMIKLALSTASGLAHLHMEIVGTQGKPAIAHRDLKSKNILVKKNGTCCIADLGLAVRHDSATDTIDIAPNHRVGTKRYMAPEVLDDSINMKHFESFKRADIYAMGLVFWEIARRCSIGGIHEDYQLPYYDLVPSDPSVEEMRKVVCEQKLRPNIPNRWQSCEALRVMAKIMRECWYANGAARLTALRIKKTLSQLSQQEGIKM
UniProt Q32MK0, sequence (whole entry, looked up): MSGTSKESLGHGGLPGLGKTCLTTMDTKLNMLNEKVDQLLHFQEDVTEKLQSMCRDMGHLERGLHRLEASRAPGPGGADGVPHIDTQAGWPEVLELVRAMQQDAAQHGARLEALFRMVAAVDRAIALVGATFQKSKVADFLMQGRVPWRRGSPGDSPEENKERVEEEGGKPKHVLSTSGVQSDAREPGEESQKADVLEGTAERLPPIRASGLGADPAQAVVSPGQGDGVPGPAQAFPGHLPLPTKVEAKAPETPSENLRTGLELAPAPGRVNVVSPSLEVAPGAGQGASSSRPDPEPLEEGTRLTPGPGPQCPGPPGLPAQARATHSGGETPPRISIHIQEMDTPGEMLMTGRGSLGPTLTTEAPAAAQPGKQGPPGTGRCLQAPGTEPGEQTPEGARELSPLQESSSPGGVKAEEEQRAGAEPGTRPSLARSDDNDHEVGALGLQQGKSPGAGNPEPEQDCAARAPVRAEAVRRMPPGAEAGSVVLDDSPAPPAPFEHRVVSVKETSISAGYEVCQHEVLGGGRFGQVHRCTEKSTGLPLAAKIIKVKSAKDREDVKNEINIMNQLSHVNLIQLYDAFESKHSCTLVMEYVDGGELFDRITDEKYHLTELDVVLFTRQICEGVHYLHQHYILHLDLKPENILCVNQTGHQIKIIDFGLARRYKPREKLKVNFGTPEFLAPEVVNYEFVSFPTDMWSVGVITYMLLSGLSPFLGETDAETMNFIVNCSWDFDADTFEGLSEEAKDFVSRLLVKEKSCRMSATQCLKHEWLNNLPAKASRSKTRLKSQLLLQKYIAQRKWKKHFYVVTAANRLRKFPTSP
UniProt Q9P0L2, sequence (whole entry, looked up): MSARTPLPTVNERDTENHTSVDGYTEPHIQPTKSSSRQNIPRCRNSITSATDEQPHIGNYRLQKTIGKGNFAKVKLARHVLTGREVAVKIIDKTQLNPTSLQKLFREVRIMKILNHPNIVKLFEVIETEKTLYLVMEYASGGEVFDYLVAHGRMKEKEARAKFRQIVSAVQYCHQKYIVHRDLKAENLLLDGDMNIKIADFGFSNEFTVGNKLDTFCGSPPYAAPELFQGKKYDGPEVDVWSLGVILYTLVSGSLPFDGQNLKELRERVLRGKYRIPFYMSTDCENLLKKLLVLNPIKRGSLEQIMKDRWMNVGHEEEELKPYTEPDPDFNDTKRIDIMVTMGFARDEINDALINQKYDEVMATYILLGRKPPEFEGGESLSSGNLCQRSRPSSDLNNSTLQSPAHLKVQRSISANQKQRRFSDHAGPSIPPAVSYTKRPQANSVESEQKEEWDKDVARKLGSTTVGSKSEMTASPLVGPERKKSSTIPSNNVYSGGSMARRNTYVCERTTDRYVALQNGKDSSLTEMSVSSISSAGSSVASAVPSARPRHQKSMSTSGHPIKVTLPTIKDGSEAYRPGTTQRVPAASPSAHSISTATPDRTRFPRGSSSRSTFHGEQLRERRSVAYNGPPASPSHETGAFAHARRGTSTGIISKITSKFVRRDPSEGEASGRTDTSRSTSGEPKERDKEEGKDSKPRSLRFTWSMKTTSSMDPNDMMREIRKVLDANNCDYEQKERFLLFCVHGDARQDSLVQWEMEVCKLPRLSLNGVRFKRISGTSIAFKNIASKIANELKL
UniProt Q9UEE5, sequence (whole entry, looked up): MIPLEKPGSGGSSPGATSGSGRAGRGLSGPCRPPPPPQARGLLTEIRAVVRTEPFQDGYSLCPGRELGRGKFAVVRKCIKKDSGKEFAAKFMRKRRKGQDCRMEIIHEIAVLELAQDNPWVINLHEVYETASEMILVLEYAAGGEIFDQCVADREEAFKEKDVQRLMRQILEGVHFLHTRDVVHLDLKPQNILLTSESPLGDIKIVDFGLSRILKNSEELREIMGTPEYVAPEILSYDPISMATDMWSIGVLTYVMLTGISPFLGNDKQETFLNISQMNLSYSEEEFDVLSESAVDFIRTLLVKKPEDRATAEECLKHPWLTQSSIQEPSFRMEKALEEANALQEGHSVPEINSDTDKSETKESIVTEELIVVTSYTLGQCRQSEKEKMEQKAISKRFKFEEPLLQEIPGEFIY

Sample 1
Target: DNA polymerase theta, ATPase domain (POLQ, Homo sapiens, UniProt O75417)
UniProt O75417, sequence (whole entry, unmodified, looked up): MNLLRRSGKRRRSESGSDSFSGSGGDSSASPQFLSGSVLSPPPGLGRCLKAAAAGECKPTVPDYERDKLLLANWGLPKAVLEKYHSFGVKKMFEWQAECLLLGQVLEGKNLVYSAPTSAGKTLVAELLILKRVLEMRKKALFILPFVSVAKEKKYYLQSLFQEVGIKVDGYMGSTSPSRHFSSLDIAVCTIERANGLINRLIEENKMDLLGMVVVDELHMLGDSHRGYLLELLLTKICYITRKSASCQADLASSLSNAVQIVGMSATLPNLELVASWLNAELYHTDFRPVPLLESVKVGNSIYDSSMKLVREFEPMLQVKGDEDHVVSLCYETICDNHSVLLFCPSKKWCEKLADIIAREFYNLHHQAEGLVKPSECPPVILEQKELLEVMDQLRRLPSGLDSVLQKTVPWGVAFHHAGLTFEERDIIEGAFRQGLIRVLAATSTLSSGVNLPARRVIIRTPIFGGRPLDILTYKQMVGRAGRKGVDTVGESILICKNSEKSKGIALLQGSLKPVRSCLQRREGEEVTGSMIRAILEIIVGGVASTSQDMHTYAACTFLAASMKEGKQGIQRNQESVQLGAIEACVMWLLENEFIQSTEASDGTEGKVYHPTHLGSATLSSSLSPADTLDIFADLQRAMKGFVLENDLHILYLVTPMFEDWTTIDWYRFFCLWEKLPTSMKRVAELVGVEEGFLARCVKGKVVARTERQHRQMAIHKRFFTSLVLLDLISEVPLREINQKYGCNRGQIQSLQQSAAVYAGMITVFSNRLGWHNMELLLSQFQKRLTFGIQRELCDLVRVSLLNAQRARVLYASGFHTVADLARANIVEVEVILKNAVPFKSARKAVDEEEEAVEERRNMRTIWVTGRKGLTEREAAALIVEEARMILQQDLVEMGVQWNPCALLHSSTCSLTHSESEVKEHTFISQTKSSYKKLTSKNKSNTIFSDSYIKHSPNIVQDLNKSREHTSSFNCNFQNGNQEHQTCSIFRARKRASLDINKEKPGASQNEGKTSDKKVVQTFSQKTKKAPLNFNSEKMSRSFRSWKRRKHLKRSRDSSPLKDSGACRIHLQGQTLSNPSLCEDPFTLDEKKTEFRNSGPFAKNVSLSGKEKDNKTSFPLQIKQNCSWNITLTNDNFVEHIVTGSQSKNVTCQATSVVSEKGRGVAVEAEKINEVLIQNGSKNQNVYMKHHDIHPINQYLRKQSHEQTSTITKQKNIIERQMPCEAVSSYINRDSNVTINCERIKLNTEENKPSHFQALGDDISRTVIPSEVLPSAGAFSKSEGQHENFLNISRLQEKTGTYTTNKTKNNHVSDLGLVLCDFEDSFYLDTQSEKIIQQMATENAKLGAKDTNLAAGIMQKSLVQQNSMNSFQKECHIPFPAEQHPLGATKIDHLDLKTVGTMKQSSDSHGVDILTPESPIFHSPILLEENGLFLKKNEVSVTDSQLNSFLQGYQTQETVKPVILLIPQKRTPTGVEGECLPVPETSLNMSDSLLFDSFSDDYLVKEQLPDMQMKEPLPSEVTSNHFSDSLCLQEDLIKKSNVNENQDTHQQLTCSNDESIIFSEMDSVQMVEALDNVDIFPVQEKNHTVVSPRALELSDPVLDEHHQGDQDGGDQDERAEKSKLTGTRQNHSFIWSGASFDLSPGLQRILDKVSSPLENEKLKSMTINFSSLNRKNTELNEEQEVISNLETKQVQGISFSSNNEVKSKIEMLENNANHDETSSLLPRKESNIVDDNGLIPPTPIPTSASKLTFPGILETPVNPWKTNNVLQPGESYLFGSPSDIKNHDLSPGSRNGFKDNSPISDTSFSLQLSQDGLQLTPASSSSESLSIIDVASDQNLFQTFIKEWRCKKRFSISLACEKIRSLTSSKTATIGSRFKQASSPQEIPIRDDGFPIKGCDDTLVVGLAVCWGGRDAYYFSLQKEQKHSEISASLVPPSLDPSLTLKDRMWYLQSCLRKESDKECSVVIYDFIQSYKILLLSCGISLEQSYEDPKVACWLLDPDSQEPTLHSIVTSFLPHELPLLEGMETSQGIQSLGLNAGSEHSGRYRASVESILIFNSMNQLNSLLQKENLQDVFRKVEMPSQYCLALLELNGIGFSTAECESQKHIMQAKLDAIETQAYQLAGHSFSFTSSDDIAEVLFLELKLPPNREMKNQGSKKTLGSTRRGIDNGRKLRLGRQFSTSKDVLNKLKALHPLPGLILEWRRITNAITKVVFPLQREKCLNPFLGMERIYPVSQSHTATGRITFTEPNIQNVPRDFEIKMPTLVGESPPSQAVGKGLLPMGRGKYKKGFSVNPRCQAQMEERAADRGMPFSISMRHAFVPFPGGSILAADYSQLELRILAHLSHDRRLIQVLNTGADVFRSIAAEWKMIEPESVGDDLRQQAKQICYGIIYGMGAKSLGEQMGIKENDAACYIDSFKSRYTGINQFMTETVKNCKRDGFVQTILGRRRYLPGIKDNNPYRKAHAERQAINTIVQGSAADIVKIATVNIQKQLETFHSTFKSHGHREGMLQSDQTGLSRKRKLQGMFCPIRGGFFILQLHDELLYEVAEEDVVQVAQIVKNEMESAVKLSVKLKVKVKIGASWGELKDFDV
Effect on: enzyme activity
Mode: inhibitor
Concentration: 77 µM
Relative to: untreated
SMILES	remaining activity
CC[N+](C)(CC)CCC[n+]1c(-c2ccccc2)c2cc(N)ccc2c2ccc(N)cc21	67.2%
C=C[C@]1(C)C[C@@H](OC(=O)CSC(C)(C)CNC(=O)[C@H](N)C(C)C)[C@]2(C)[C@H](C)CC[C@]3(CCC(=O)[C@H]32)[C@@H](C)[C@@H]1O	74.3%
Cc1cccc(-c2[nH]ncc2-c2ccc3ncccc3n2)n1	96.7%
C/C(=C\c1ccc(C(=O)O)cc1)c1ccc2c(c1)C(C)(C)CCC2(C)C	94.6% and 94.4%
CN1C(CCl)Nc2cc(Cl)c(S(N)(=O)=O)cc2S1(=O)=O (centres unmarked)	102%
COc1cc(-c2ccc(/N=N/c3ccc4c(S(=O)(=O)O)cc(S(=O)(=O)O)c(N)c4c3O)c(OC)c2)ccc1/N=N/c1ccc2c(S(=O)(=O)O)cc(S(=O)(=O)O)c(N)c2c1O	81.7%
N[C@@H](CC(=O)O)C(=O)O	89.5%
c1ccc([C@H]2CN3CCSC3=N2)cc1	96.1%
C=C1C(=O)O[C@@H]2/C=C(\C)CC/C=C(\C)CC[C@@H]12	127%

Sample 2
Compound: CN(C)CC#Cc1ccc(OCCCc2sc(N3CCc4cccc(C(=O)Nc5nc6ccccc6s5)c4C3)nc2C(=O)O)c(F)c1
Effect on: cell-free assay
Method: competition with immobilised ligand
Concentration: 1 µM
target	remaining binding [%]
Rhodopsin kinase GRK1 (GRK1, Homo sapiens, UniProt Q15835)	95
Ribosomal protein S6 kinase alpha-6, N-terminal kinase domain (RPS6KA6, Homo sapiens, UniProt Q9UK32)	90
Tyrosine-protein kinase ABL1, phosphorylated (ABL1, Homo sapiens, UniProt P00519, H396P)	99
eIF-2-alpha kinase GCN2, C-terminal kinase domain (EIF2AK4, Homo sapiens, UniProt Q9P2K8, S808G)	83
TGF-beta receptor type-1 (TGFBR1, Homo sapiens, UniProt P36897)	100
5'-AMP-activated protein kinase catalytic subunit alpha-1 (PRKAA1, Homo sapiens, UniProt Q13131)	100
NUAK family SNF1-like kinase 1 (NUAK1, Homo sapiens, UniProt O60285)	80
Ephrin type-A receptor 4 (EPHA4, Homo sapiens, UniProt P54764)	88
Serine/threonine-protein kinase 17A (STK17A, Homo sapiens, UniProt Q9UEE5)	85
Transient receptor potential cation channel subfamily M member 6 (TRPM6, Homo sapiens, UniProt Q9BX84)	84
Myosin light chain kinase (MYLK3, Homo sapiens, UniProt Q32MK0)	78
Serine/threonine-protein kinase MARK1 (MARK1, Homo sapiens, UniProt Q9P0L2)	93
Muscle, skeletal receptor tyrosine-protein kinase (MUSK, Homo sapiens, UniProt O15146)	84
Calcium/calmodulin-dependent protein kinase type II subunit gamma (CAMK2G, Homo sapiens, UniProt Q13555)	62
Mast/stem cell growth factor receptor Kit, autoinhibited (KIT, Homo sapiens, UniProt P10721)	85
Cyclin-dependent kinase 18 (CDK18, Homo sapiens, UniProt Q07002)	100

Sample 3
Species: mouse
Matrix: microsomes or S9
Concentration: 2 µM
Time: 0.5 h
SMILES	remaining compound
CN1CCCN(c2nc(CN3CCCCC3)nc3scc(-c4ccccc4)c23)CC1	35%
Cc1nnc(-c2csc(S(=O)(=O)NC(C)C)c2)o1	60.5%
Oc1c2ccc(-c3ccc[nH]3)nc2nn1-c1ccccc1	5.28%
Cn1cc(-n2cc(Cc3c(Cl)cccc3Cl)c(=O)[nH]c2=O)cn1	25.6%
Cc1noc(-c2cccn3c(=O)n(Cc4c(C)noc4C)nc23)n1	0.782%
Cc1cnn(CC2CN(c3nccn4nc(C)cc34)CCO2)c1 (centres unmarked)	0.111%

Sample 4
Cell line: mouse MPNST tumor cells
Method: high-content immunofluorescence imaging
Measured: nuclear SOX9
Concentration: 10 µM
Time: 12 h
Setting: mean of 2 replicates
Relative to: DMSO control
Reading: higher = more nuclear SOX9
Structure (SMILES)	nuclear SOX9 intensity
CN1CCN(c2ncc(-c3cc(Cl)cc(Cl)c3Cl)c(N)n2)CC1	169 % of DMSO
C#CCN(C)CCCOc1ccc(Cl)cc1Cl	118 % of DMSO
O=[N+]([O-])c1cccc2c(Br)[nH]nc12	107 % of DMSO
CCCCS(=O)(=O)N[C@@H](Cc1ccc(OCCCCC2CCNCC2)cc1)C(=O)O	92.4 % of DMSO
CC(C)(CO)C(O)C(=O)NCCCO (centres unmarked)	101 % of DMSO
CC(=O)Oc1cc(C(C)C)c(OCCN(C)C)cc1C	115 % of DMSO
Fc1ccc(Cl)cc1-c1nc(Nc2ccncc2)c2nccnc2n1	124 % of DMSO

Excerpt of the above (sample 2):
target	remaining binding [%]
Rhodopsin kinase GRK1 (GRK1, Homo sapiens, UniProt Q15835)	95
Ribosomal protein S6 kinase alpha-6, N-terminal kinase domain (RPS6KA6, Homo sapiens, UniProt Q9UK32)	90
Tyrosine-protein kinase ABL1, phosphorylated (ABL1, Homo sapiens, UniProt P00519, H396P)	99
eIF-2-alpha kinase GCN2, C-terminal kinase domain (EIF2AK4, Homo sapiens, UniProt Q9P2K8, S808G)	83
TGF-beta receptor type-1 (TGFBR1, Homo sapiens, UniProt P36897)	100
5'-AMP-activated protein kinase catalytic subunit alpha-1 (PRKAA1, Homo sapiens, UniProt Q13131)	100
